Measured values gathered from unrelated publications.
Numbered parts are unrelated; each lists some results of a single study.

Set 1 — method: RNA Bind-n-Seq; form: RNA; matrix: in vitro; concentration: 200 nM; notes: whole 134-nt RNA, ends assumed; added: 150 mM KCl; baseline: input library; direction: higher = stronger binding; quantity: log2 enrichment
Target: Ras GTPase-activating protein-binding protein 1, full length (G3BP1, Homo sapiens, UniProt Q13283)
Chain of UniProt Q13283 (whole entry, looked up): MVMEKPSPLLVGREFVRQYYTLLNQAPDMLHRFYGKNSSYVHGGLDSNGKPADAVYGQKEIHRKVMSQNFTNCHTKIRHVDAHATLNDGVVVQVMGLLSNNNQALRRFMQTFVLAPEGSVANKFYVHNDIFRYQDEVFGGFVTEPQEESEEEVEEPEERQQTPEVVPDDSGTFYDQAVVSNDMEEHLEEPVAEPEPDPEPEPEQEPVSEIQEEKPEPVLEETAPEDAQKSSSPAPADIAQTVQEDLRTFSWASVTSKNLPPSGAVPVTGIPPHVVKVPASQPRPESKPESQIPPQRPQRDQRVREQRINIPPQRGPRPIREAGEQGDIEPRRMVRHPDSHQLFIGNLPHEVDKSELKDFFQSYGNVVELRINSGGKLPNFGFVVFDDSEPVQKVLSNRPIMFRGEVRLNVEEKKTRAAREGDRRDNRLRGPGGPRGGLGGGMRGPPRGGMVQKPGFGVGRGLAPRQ
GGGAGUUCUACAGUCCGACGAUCUCCUGUGCUACACAUCGUAUGUACCGAAUCGGGUUUUUGGGGUUUUUGGGGUUUUUGGGAAAGUAUUAUGUUACGCCGUUCGGAUCUGCAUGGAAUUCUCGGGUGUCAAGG: 0.144
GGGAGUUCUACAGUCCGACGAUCCUCAAGUCCUGUGCUACACAUCGUAUGUACCGAAUCGGGUGGGGUGGGGUGGGAAAGUAUUAUGUUACGCCGUUCGGAUCUGCACUUCCAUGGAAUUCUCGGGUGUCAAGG: 1.16
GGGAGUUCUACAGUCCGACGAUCUCCUGUGCUACACAUCGUAUGUACCGAAUCGGGAAAAAAGGAAAAAAGGGAAAAAAGGGGAAAGUAUUAUGUUACGCCGUUCGGAUCUGCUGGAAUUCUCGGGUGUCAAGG: -0.512
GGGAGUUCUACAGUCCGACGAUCUGGCCCUGGUGGCAUGCGGGGAGGAAGAGGUGGCCUCAUGGAUCGUGGUGGUCCCGGUGGAAUGUUCAGAGGUGGCCGUGGUGGAGGCAGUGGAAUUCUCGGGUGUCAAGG: 0.346
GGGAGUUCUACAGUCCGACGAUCAAGUCCUGUGCUACACAUCGUAUGUACCGAAUCGGAAAGGAAAAAGGUUUUUUUGGAAAGUAUUAUGUUACGCCGUUCGGAUCUGCACUUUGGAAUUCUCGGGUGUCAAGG: -1.64
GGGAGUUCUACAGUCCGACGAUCUGGCCCUGGUGGCAUGCGGGGAGGAAGAGGUGGCCUCAUGGAUCGUGGUGGUCCCGGAGGAAUGUUCAGAGGUGGCCGUGGUGGAGACAGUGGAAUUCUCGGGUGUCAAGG: 0.0694
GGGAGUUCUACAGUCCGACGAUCGCAGGAAGUAAAAACAAAAGGAAAUGCUUCGGAUAGUGGCAGGGGUGGGGGUUGCUAAGGAAAGGGUGGGAUGGGAGUGGGUAAAGAGUUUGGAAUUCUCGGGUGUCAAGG: 0.998
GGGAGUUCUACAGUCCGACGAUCAAGUCCUGUGCUACACAUCGUAUGUACCGAAUCGGGAAAAGGGAAAAGGGGAAAAGGAAAGUAUUAUGUUACGCCGUUCGGAUCUGCACUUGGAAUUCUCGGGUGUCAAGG: -0.588
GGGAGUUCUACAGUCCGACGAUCUCAAGUCCUGUGCUACACAUCGUAUGUACCGAAUCGGAGGAAAAAAAGGAAAGGAAAGUAUUAUGUUACGCCGUUCGGAUCUGCACUUCCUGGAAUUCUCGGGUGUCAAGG: -0.777
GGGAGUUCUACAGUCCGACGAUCUCCUCAAGUCCUGUGCUACACAUCGUAUGUACCGAAUCGUGUGUGUGUGUGUAAAGUAUUAUGUUACGCCGUUCGGAUCUGCACUUCCAGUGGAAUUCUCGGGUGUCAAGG: 0.403
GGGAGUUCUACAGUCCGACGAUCCCUCAAGUCCUGUGCUACACAUCGUAUGUACCGAAUCGGGUGGGGUGGGGUGGAAAGUAUUAUGUUACGCCGUUCGGAUCUGCACUUCCAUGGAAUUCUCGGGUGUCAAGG: 1.07
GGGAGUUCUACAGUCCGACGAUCAGUCCUGUGCUACACAUCGUAUGUACCGAAUCGGCCCCCGGCCCCCGGGCCCCCGGGGAAAGUAUUAUGUUACGCCGUUCGGAUCUGCACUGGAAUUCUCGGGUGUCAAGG: -0.759
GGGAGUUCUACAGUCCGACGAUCCAAGUCCUGUGCUACACAUCGUAUGUACCGAAUCGGGGUUUUGGUUUUGGUUUUGGAAAGUAUUAUGUUACGCCGUUCGGAUCUGCACUUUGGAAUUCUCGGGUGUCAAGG: -0.834
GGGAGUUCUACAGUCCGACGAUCAAGUCCUGUGCUACACAUCGUAUGUACCGAAUCGGUUUGGAAAAAGGUUUUUUUGGAAAGUAUUAUGUUACGCCGUUCGGAUCUGCACUUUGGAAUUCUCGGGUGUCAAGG: -1.39

Set 2 — method: RNA Bind-n-Seq; form: RNA; matrix: in vitro; concentration: 365 nM; baseline: no-protein control; direction: higher = stronger binding; quantity: RBNS enrichment (R)
Target: RNA binding protein fox-1 homolog 2, RRM domain, GST-SBP tag (RBFOX2, Homo sapiens, UniProt O43251-10, residues 100-194)
Notes: natural RNA segment, single round, ends assumed
Target sequence (chain): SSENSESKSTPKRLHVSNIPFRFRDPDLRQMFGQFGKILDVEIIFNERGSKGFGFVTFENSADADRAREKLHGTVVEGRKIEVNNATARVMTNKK
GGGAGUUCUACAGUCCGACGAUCGUAGGUGUGCAAGAAGCCAUUUCCCCAUAAGCACUGGCCUUUGAUGGCCCCCUCAGCCUACCUGGUGUGGCCACCCAGCUGUGGCUCAGCCAUCCCCGCCCUCCCUCCGCUGGAAUUCUCGGGUGCCAA: 0.325
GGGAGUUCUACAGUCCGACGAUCCCGCCCACCUGUCUGCACUCCUGUCACUUGUAGGCCUGGCUGACUUACAGAUUUUUCCUUCCCCAGCUUGUGUCCACCCCUGUGCCAGGAGAGGUAGCACCAUCUCCUGGUGGAAUUCUCGGGUGCCAA: 0.625
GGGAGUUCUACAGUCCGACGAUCUGAGAUAUCAGUGUGUUUAUUAAUAAGGAUUGCAAUAGUAUAGUGCUUAAUAUGUGCCAGGCAUAGUGCUAAGGGUUUACAUACGUUAUCCCUUUUAAUCCAGAAAACAGUGGAAUUCUCGGGUGCCAA: 0.355
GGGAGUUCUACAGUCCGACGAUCGGUAUACGGUGCUAAUUAGUAAAAUAUUGAAGGCAAUAUUUUACUGCUAGCUUGCAAAGUUAUGAGAGUUUAAAAAAUAAAAUAUAUGAAAAUAUGUAAAGCUGUUGAGAUGGAAUUCUCGGGUGCCAA: 0.819
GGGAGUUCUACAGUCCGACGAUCUGAUUAAAGAUGUCUCAUGUACUUGGAAAAGUGAGCAUUUUUUUUUUUUUUGUAUUUCACUUUCAUACCAGGCUUAAUGUCAAUGACAUUUUUAUUUUUGAAGUACUCUGUGGAAUUCUCGGGUGCCAA: 0.796
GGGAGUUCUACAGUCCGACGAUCCCACUGAUUGCCGCCUUGUUCUCCCUGACUGAUUGCUGCCUUGCUGGCUAGCCCAAGGGCCCUGCCAUGUUCUCCCCACAUCCGUAAAUAAACUUCCUUUCCCACACUGUUGGAAUUCUCGGGUGCCAA: 3.2
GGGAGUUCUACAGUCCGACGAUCUCCAUGUUGAAUGGUACAAAAUAUUUCUGUGAAACUAACAGGAAGAUAUUUUCAGAUAACUAGGAUAACUUGUUGCUUUGUUACCCAGCCUAAUUGAAGAGUGGCAGAGGUGGAAUUCUCGGGUGCCAA: 0.325
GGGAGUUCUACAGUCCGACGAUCCCUCCAUUGGCUUCCUCACUCCAAAAUAGGUGCUGAUCCUUCCUAUUCCUAUUCUUUGCCACCUUUUGGGUGUGGUGUCACCAGCCUGUUUAGCCAAGUAGCUUUGGGCAUGGAAUUCUCGGGUGCCAA: 0.654
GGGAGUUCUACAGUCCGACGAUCCCUUGAUCCUCAGGCUGCACCUCUGGCAAAUGGGAGAAUGCGGCUCCUUUUGACUUCAAGGGAUCUUUGUGGGAACCAAUGAGAAAAUGUGUGUGAAGAUAGCUUUUUGGUGGAAUUCUCGGGUGCCAA: 1.54
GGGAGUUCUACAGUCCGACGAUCAGUGGGGGAUGGGUCCUCUAGACUUGAGGGGCUACCCUGGGAAGCUGCCGUAGCUUCAGCCAGGCAAGAAAGCUUCCUUCAACCUGCAUAGCCGGUGGGUGAGGAGAUUCUGGAAUUCUCGGGUGCCAA: 0.419
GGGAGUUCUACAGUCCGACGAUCGUACAGUGCCCCACCUAUUUAAAAAUCACGUACUUGCCCAGAACACUGUGAAACACUUAACAUAAGAACAAACGCAGCGUCUGGAUUCUUUCCAAGGAGAGCAGCUUUCUUGGAAUUCUCGGGUGCCAA: 0.354
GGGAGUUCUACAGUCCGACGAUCGCUGUAUGAUAAAUUGUUGAAAUGCAAGUGUAAAUAUUUUUUAUGUUAAUCCAGUUUCCUAUUAGAAAGUGUGUCUUUGCUAUUUCCUCUGUAAGAGAAUAGAAUGGCCUUGGAAUUCUCGGGUGCCAA: 0.974

Set 3 — method: protein-binding microarray; form: double-stranded DNA, one strand shown; matrix: in vitro; concentration: 940 nM top; notes: 60-bp whole probe; added: salmon DNA 0.4 mg/ml; baseline: random background probes; direction: higher = stronger binding; quantity: fitted relative affinity; all sequences stand within: GCCTAGCAC … GTCTTGATTCGCTTGACGCTGCTG
Target: Interferon regulatory factor 5, full length, phosphomimetic (IRF5, Homo sapiens, UniProt Q13568-2, residues 1-514, S451D/S453D/S456D/S462D)
AACGGACTGCTTATCCTGACGTGCTAG: -0.0109 z-score
TCATGCTTCTGTATGGGACTGTGCTAG: -0.229 z-score
TTAGGTCTCGGACCGGGTTAGTGCTAG: 0.764 z-score
GACGGTATCTTTATCCTGACGTGCTAG: 0.666 z-score
TTAGAACTGGGCACTGGATTAGTGCTA: -0.834 z-score
TTAAGTCTCCTACTGCTTTAGTGCTAG: 0.367 z-score
GACGGACTTGACTATCGGGACGTGCTA: -0.454 z-score
GACGGTATCGACTTTCGGAACGTGCTA: 4.74 z-score
TAAGAAAAGCCACCAGGACCGTGCTAG: -0.716 z-score
AGAAACTGTGAGGAGGGGAAGTGCTAG: 2.68 z-score
GACGGTTTCGGACTGGGGTCGTGCTAG: 7.54 z-score
GACTATTTCAGTATCGAGACGTGCTAG: 3.15 z-score
CTGTTTTTGCTTTCCTTTATGTGCTAG: 2.49 z-score
TTCCCTTTCTCAACCTCCAGGTGCTAG: 2.08 z-score
TTAGGTTTCGGGTTTGGGTTAGTGCTA: 9.81 z-score
TAGTTTTCATTTTCTGAATGTGTGCTA: 2.33 z-score
TTAGATTTGGGGACTGGATTAGTGCTA: 0.164 z-score
TTAGATTTCGGGACTGAATTAGTGCTA: 0.375 z-score
TTAGGTATCGGGACAGGGTTAGTGCTA: 4.34 z-score
GACCTTTTTAAGATCTGTGCGTGCTAG: -0.0394 z-score
TTAGGACTGGGTCTTGGTTAGTGCTAG: -0.336 z-score
TTAGGACTGGGGCTGGGTTAGTGCTAG: -0.368 z-score
TTAGGTATCGGGTTTCGCTTAGTGCTA: 6.72 z-score
CATTTTCTGAATGTCCTCCTGTGCTAG: 0.609 z-score
TTAGATCTGGGGTATCGATTAGTGCTA: 2.8 z-score

Set 4 — method: universal PBM; form: double-stranded DNA, one strand shown; matrix: in vitro; concentration: 600 nM; direction: higher = stronger binding; quantity: E-score
Target: Sal-like protein 4, full length isoform A (SALL4, Homo sapiens, UniProt Q9UJQ4, residues 1-1053)
Chain of UniProt Q9UJQ4 (whole entry, looked up): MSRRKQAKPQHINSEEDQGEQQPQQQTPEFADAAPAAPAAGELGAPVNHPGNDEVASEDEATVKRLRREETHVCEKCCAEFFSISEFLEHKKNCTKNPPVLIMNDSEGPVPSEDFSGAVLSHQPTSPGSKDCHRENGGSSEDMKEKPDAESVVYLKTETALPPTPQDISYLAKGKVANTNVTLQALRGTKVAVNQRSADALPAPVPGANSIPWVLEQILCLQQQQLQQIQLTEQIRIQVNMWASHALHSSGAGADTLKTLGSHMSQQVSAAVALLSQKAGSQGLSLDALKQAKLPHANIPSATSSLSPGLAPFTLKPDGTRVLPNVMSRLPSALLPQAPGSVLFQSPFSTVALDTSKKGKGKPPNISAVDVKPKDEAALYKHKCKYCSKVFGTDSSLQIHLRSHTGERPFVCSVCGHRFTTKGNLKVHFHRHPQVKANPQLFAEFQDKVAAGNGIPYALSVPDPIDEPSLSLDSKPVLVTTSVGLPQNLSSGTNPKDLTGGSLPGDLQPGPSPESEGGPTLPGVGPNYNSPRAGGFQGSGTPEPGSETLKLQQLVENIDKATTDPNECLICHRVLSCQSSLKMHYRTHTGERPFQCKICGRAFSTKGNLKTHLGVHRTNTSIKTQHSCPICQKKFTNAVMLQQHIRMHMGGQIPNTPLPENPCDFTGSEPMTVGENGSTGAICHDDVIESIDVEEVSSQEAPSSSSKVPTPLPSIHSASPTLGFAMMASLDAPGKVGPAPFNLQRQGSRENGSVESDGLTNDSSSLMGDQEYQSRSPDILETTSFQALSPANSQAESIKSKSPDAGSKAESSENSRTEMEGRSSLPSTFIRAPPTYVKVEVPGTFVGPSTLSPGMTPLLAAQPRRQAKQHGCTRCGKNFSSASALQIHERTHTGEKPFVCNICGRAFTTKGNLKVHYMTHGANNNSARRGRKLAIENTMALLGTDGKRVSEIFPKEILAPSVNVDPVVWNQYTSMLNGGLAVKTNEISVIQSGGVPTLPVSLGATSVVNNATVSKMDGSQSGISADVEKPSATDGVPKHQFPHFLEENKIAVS
Notes: 8-mer, flanks averaged, mean of replicates
CGTTCAAC: 0.0369
CGCGATAA: 0.148
GTTTATCA: 0.263
ACGGAGCG: -0.174
CGCAAAAC: 0.049
CACTCCGC: -0.244
GGGTCCAA: -0.226
CAGCCGGC: -0.334
CCATCCAG: -0.118
AACAAATG: 0.171
CCTCTGTA: 0.0302
CGAGATTC: -0.152
AACAGTCA: 0.0401
ATGCTGCC: -0.068
CCTCATCG: -0.0415
CGATTACG: -0.0642
ACACAACA: 0.207
TCTGTAAA: 0.236
CTACATGC: 0.0693
CCAGAGGC: -0.255
CTGGAAAG: -0.126

A few entries again (set 4):
CGCAAAAC: 0.049
CACTCCGC: -0.244
GGGTCCAA: -0.226
CAGCCGGC: -0.334
CCATCCAG: -0.118
AACAAATG: 0.171
CCTCTGTA: 0.0302
CGAGATTC: -0.152
AACAGTCA: 0.0401
